Assay results pooled from the literature.
Protocols differ between the studies behind these lines. ± marks the error that the study gave.

| Structure (SMILES) | technique | sample | tested at | pH | notes | logD |
| --- | --- | --- | --- | --- | --- | --- |
| COc1ccccc1CNC(=O)c1cc(S(=O)(=O)N2CCn3nccc3C2)c(C)n1C |  |  |  |  |  | 1.81 |
| COc1cc2[nH]c(C)c(-c3ccncc3)c(=O)c2cc1Cl | chromatographic |  |  | pH 7.4 |  | 1.8 |
| Fc1ccc([C@@H]2COC[C@H](c3cccc(Br)c3)N2)cc1 | shake-flask, 1-octanol/buffer |  |  | pH 7.4 |  | > 4.7 |
| Cc1c(NC(=O)C2CCCN2S(=O)(=O)c2ccccc2)c(=O)n(-c2ccccc2)n1C (stereo not drawn) |  | octanol/buffer |  | pH 7.4 |  | 1.14 |
| O=C(Nc1ccc(F)cc1)N1CCNCC1COc1ccc2c(c1)OCO2 (stereo not drawn) | experimental partition |  |  | pH 7.4 |  | 1.88 ± 0.01 |
| CCOC(=O)N1C[C@@H](C2CCCC2)N[C@@H](c2cc(Cl)cc(Cl)c2)C1 | shake-flask, 1-octanol/buffer |  |  | pH 7.4 |  | > 4.7 |
| COc1ccc(NC(=O)CCSc2nnc3scc(-c4ccc(C)cc4)n23)cc1 |  | octanol/buffer |  | pH 7.4 |  | 3.68 |
| Cc1ccc(S(=N)C2CC2)cc1 (stereo not drawn) |  |  |  | pH 7.4 |  | -0.3 |
| CNC(=O)/C=C/C(=O)NNC(=O)CCc1ccccc1C(=O)N[C@H](C)c1cccc2ccccc12 |  |  |  |  |  | 2.5 |
| COc1cc2[nH]c(C)c(-c3ccc(OC(C)C)cc3)c(=O)c2cc1Cl | chromatographic |  |  | pH 7.4 |  | 3.3 |
| CCCN(C)Cc1cc(-c2[nH]c3cccc(F)c3c(=O)c2C)ccc1Cc1ccc(OC(F)(F)F)cc1 |  |  |  | pH 7.4 |  | 5.78 |
| CCOC(=O)N1C[C@@H](c2ccc(C(F)(F)F)cc2)N[C@@H](c2cnc(-c3ccccc3)nc2)C1 | shake-flask, 1-octanol/buffer |  |  | pH 7.4 |  | > 4.7 |
| COc1cc([N+](=O)[O-])ccc1NC(=O)CN1CCOCC1 |  | octanol/buffer |  | pH 7.4 |  | 2.04 |
| Cc1ccc(Nc2ncnc3ccc(-c4cccc(N5CCOCC5)c4)cc23)cc1 | shake flask | 1-octanol/phosphate buffer |  | pH 7.4 |  | > 4.1 |
| COC(=O)/C=C/C(=O)NNC(=O)CCc1ccccc1C(=O)N[C@H](C)c1cccc(C2=CCOCC2)c1 |  |  |  |  |  | 2.4 |
| CCOC(=O)N1C[C@@H](c2ccccc2O)N[C@@H](c2ccc(-c3ccccc3)cc2)C1 | shake-flask, 1-octanol/buffer |  |  | pH 7.4 |  | > 4.7 |
| COc1cc2[nH]c(C)c(-c3ccc(COc4ccccc4)cc3)c(=O)c2cc1Cl | chromatographic |  |  | pH 7.4 |  | 3.7 |
| CC(=O)Nc1ccc(S(=O)(=O)Nc2c(C)nn(-c3ccccc3)c2C)cc1 |  | octanol/buffer |  | pH 7.4 |  | 2.55 |
| COc1cc2[nH]c(C)c(-c3ccc(F)cc3)c(=O)c2cc1Cl | chromatographic |  |  | pH 7.4 |  | 2.6 |
| CCc1ccccc1NC(=O)CSc1nnc(-c2cccc(OC)c2)n1C |  | octanol/buffer |  | pH 7.4 |  | 2.76 |
| CCOc1cc(CC(=O)N[C@@H](CC(C)C)c2ccccc2N2CCCCC2)ccc1C(=O)O | miniaturised shake-flask | 1-octanol/water |  |  |  | 2.5 |
| Cc1ccc(C(C)(C)c2ccc(NC(=O)CN(C)c3ccccc3N3CCCC3=O)cc2)cc1 | shake-flask |  |  |  |  | 5.1 |
| O=c1[nH]c(=S)n(Cc2ccc(F)cc2)c2nc[nH]c12 |  |  |  |  |  | 2.1 |
| Cc1nn(C)cc1S(=O)(=O)NC(=O)c1ccc(-n2ccc(OCC(C)(C)C(F)(F)F)n2)nc1N1C[C@@H](C)CC1(C)C | miniaturised shake-flask | 1-octanol/water |  |  |  | > 4.7 |
| CN1CCN(c2cccc(-c3ccc4ncnc(Nc5ccc([N+](=O)[O-])c(C(F)(F)F)c5)c4c3)c2)CC1 | shake flask | 1-octanol/phosphate buffer |  | pH 7.4 |  | > 3.9 |
| Oc1ccc(Cl)c2cccnc12 | miniaturised shake-flask | 1-octanol/water |  |  |  | 2.8 |

| Structure (SMILES) | technique | sample | tested at | pH | notes | logD |
| --- | --- | --- | --- | --- | --- | --- |
| CC(C)N(c1ccc(Cl)c(F)c1)c1ccc(NC(=O)CN(C)c2ccccc2N2CCCC2=O)cn1 | shake-flask |  |  |  |  | 5 |
| CC(=O)/C=C/C(=O)NNC(=O)CCc1ccccc1C(=O)N[C@H](C)c1cccc2ccccc12 |  |  |  |  |  | 3.3 |
| O=C1CCC(N2C(=O)c3cccc(NCC(=O)OCCCCc4cn(CCCCCCN5CCc6c(c7ccccc7n6Cc6ccc(C(=O)NO)cc6)C5)nn4)c3C2=O)C(=O)N1 (stereo not drawn) | HPLC-based method |  |  | pH 7.4 |  | 2.3 |
| CC[N+]1(C)CCN(c2ccc(C(=O)Nc3cccc(C)n3)cc2)CC1 |  |  |  | pH 7.4 |  | -0.7 |
| COc1cc2[nH]c(C)c(-c3ccccc3)c(=O)c2cc1Cl | chromatographic |  |  | pH 7.4 |  | 1.7 |
| COc1ccc(NC(=O)c2ccco2)cc1NC(=O)c1cccnc1 |  | octanol/buffer |  | pH 7.4 |  | 1.67 |
| CC1(C)OC[C@H](c2ccc3ccccc3c2)N[C@@H]1c1cccc(F)c1 | shake-flask, 1-octanol/buffer |  |  | pH 7.4 |  | > 4.7 |
| COc1cc2[nH]c(C)c(-c3c(C)cc(C)cc3C)c(=O)c2cc1Cl | chromatographic |  |  | pH 7.4 |  | 3.3 |
| O=C(Nc1cc(C2CCCCC2)[nH]n1)c1ccc(Br)cc1 |  | octanol/buffer | 67 µM | pH 7.4 |  | 5.09 |
| Cc1ccc([C@H]2N[C@@H](c3ccc(C(F)(F)F)cc3)CO[C@@H]2C)cn1 | shake-flask, 1-octanol/buffer |  |  | pH 7.4 |  | > 4.7 |
| CN1C(C(=O)Nc2nnc(C(F)(F)F)s2)=C(O)c2ccccc2S1(=O)=O | miniaturised shake-flask | 1-octanol/water |  |  |  | 0.5 |
| O=C(O)c1cc(-c2ccc(-c3cc[nH]n3)cc2)c2ccc(-c3ccc(C(F)(F)F)cc3)cc2c1 | HPLC retention |  |  | pH 7.4 | chromatographic logD | 0.65 ± 0.01 |
| CN(c1ccc(F)cc1)c1c(-c2cccc(F)n2)nc2ccccn12 |  |  |  | pH 7.4 |  | 4 |
| O=C(O)CNC(=O)c1ncccc1O | miniaturised shake-flask | 1-octanol/water |  |  |  | -3.6 |
| CO[C@]1(C(=O)N[C@@H](C)c2ccc(-n3cc(F)cn3)nc2)CC[C@H](c2nc(C)cc(Nc3cc(C)[nH]n3)n2)CC1 |  |  |  | pH 7.4 |  | 3.82 |
| CCOC(=O)/C=C/C(=O)NNC(=O)CCc1ccccc1C(=O)N[C@H](C)c1cccc2ccccc12 |  |  |  |  |  | 3.3 |
| COc1cc2[nH]c(C)c(-c3ccc(C=O)cc3)c(=O)c2cc1Cl | chromatographic |  |  | pH 7.4 |  | 2.2 |
| O=C(O)CNC(=O)c1ncc(-c2ccc(Cl)cc2)cc1O | miniaturised shake-flask | 1-octanol/water |  |  |  | 0.3 |
| CC1(C)OC[C@H](C2CCCCC2)N[C@@H]1c1ccc(-c2ccccc2)cc1 | shake-flask, 1-octanol/buffer |  |  | pH 7.4 |  | > 4.7 |
| O=C(O)c1cc(-c2ccc(-c3ccncc3)cc2)c2ccc(-c3ccc(C(F)(F)F)cc3)cc2c1 | HPLC retention |  |  | pH 7.4 |  | 1.18 |
| COC(=O)CNC(=O)c1nc(Cl)c2ccccc2c1O | miniaturised shake-flask | 1-octanol/water |  |  |  | 2.4 |
| COc1ccc(NC(=O)CN2CCOCC2)c([N+](=O)[O-])c1 |  | octanol/buffer |  | pH 7.4 |  | 2.16 |
| COc1cc2[nH]c(C)c(-c3ccc(S(=O)(=O)N(C)C)cc3)c(=O)c2cc1Cl | chromatographic |  |  | pH 7.4 |  | 2.2 |
| c1cc(-c2ccc3ncnc(Nc4ncco4)c3c2)cc(N2CC3CCC(C2)O3)c1 | shake flask | 1-octanol/phosphate buffer |  | pH 7.4 |  | > 3.6 |
| Clc1ccc([C@@H]2COC[C@H](c3cccc(Br)c3)N2)cc1 | shake-flask, 1-octanol/buffer |  |  | pH 7.4 |  | > 4.1 |

Some of these lines once more:
| Structure (SMILES) | technique | sample | tested at | pH | notes | logD |
| --- | --- | --- | --- | --- | --- | --- |
| CC(=O)/C=C/C(=O)NNC(=O)CCc1ccccc1C(=O)N[C@H](C)c1cccc2ccccc12 |  |  |  |  |  | 3.3 |
| O=C1CCC(N2C(=O)c3cccc(NCC(=O)OCCCCc4cn(CCCCCCN5CCc6c(c7ccccc7n6Cc6ccc(C(=O)NO)cc6)C5)nn4)c3C2=O)C(=O)N1 (stereo not drawn) | HPLC-based method |  |  | pH 7.4 |  | 2.3 |
| CC[N+]1(C)CCN(c2ccc(C(=O)Nc3cccc(C)n3)cc2)CC1 |  |  |  | pH 7.4 |  | -0.7 |
| COc1cc2[nH]c(C)c(-c3ccccc3)c(=O)c2cc1Cl | chromatographic |  |  | pH 7.4 |  | 1.7 |
| COc1ccc(NC(=O)c2ccco2)cc1NC(=O)c1cccnc1 |  | octanol/buffer |  | pH 7.4 |  | 1.67 |
| CC1(C)OC[C@H](c2ccc3ccccc3c2)N[C@@H]1c1cccc(F)c1 | shake-flask, 1-octanol/buffer |  |  | pH 7.4 |  | > 4.7 |
